Measurements from different studies.
Each numbered part is a random draw from the data of one study; scales do not carry over between parts. Positions count from the first letter of the parent shown.

Study 1
Target: Interferon regulatory factor 5, full length, phosphomimetic (IRF5, Homo sapiens, UniProt Q13568-2, residues 1-514, K96S/S451D/S453D/S456D/S462D)
Method: protein-binding microarray
Form: double-stranded DNA, one strand shown
Matrix: in vitro
Concentration: 250 nM
Notes: 60-bp whole probe
Added: salmon DNA 0.4 mg/ml
Reference: random background probes
Reading: higher = stronger binding
All sequences stand within: GCCTAGCAC … GTCTTGATTCGCTTGACGCTGCTG
Sequence	log fluorescence
GACGGTATCGGGTATCCGGACGTGCTA	3.02 z-score
TTAGATACCAGTATCGATTAGTGCTAG	7.19 z-score
TCAGCTCTGTTGCCTGGTACTGTGCTA	-0.547 z-score
GACGGTCTCCTACGGCTGACGTGCTAG	-0.613 z-score
CACGGTTTCCTTTCCCTGACGTGCTAG	1.23 z-score

Study 2
Target: Histone acetyltransferase KAT6A, winged helix 2, GST fusion (KAT6A, Homo sapiens, UniProt Q92794, residues 85-181)
Method: protein binding microarray
Form: double-stranded DNA, one strand shown
Matrix: in vitro
Concentration: not given
Notes: 8-mer, flanks averaged, mean of 2 arrays, mostly near background
Reference: not given
Reading: higher = stronger binding
Target sequence (chain): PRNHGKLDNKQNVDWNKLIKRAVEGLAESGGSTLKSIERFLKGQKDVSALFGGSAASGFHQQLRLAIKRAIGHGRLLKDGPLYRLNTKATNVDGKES
Sequence	E-score
AAGTGACG	0.158
GACTCAGC	-0.146
AACTCCGA	0.123
CCTTCAAC	-0.058
GCAGTTGA	-0.0513
CGATTATC	0.00422
GATTTCGC	0.305
GGCCCAAC	0.0203

Study 3
Target: CCNB1, cyclin fold, Cln2 fusion (human)
Method: yeast growth competition, sequencing
Matrix: yeast
Notes: strong parent motif
Reference: not given
Reading: higher = stronger binding
Starting sequence: RBL2 docking peptide (human); STTRRRLFVENDS
Variant	normalised enrichment score
STQRRRLFVENDS [T3Q]	0.663
STTRRRPFVENDS [L7P]	0.455
PTTRRRLFVENDS [S1P]	1.22
STTRRMLFVENDS [R6M]	0.822
STTTRRLFVENDS [R4T]	0.896
STTRWRLFVENDS [R5W]	0.357

Single results of other studies
Substance	target	test	test system	conditions	scale	quantity	value
PhoQ, residues 284 288 289 292 302 303 SNSSNI	PhoP, residues 12 14 15 18 19 SEGLL (Escherichia coli, UniProt P23836)	Sort-seq, refers to: YFP reporter	E. coli	PhoQ-PhoP variant library, added: 10 µM Mg2+	reference: high Mg2+ state, higher = stronger signaling	fold induction	4.53

Some of these lines once more (study 1):
Sequence	log fluorescence
TTAGATACCAGTATCGATTAGTGCTAG	7.19 z-score
TCAGCTCTGTTGCCTGGTACTGTGCTA	-0.547 z-score
GACGGTCTCCTACGGCTGACGTGCTAG	-0.613 z-score
